Assay results pooled from the literature.
Parts stem from different laboratories: compare values within a part only. Values joined by “and” are separate records of one study, mostly repeats; a detail may differ. Positions count from the first letter of the parent shown.

Block 1 — technique: RNA Bind-n-Seq; form: RNA; sample: in vitro; concentration: 365 nM; relative to: no-protein control; direction: higher = stronger binding
Target: RNA binding protein fox-1 homolog 2, RRM domain, GST-SBP tag (RBFOX2, Homo sapiens, UniProt O43251-10, residues 100-194)
Setting: natural RNA segment, single round, ends assumed
All sequences stand within: GGGAGUUCUACAGUCCGACGAUC … UGGAAUUCUCGGGUGCCAA
Target sequence (chain): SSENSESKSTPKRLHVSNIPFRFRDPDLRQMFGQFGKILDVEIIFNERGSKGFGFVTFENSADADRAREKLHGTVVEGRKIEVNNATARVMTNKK
Sequence | RBNS enrichment (R)
AAAGUGGAGUAACAUUUCUUUCAUCUUUGUUUACACUCUCACUAGGACUCUGAACCAUGAUUGGAAGCAGAAAUAUAGUACGAUAGUGCAAUAGCUCAGAACCCGCCUAA | 0.346
GGGAGACAGGAGCCUAGCGGAGCCCAGCCUGGGAGCCCAGAGGGUGGCAAGAACAGUGGGCGUUGGGAGCCUAGCUCCUGCCACAUGGAGCCCCCUCUGCCGGUCGGGCA | 0.386
GAUCCUCCGCCGCCACACCGCACUGAGGACACGCCGGCCGGGCCGCCUCGUCUCAAGUUGUAUAAAGUUGUCUCCGUGUCCCCUCCUCCCUCUGCCCCCAGUGUUUCUUC | 0.174
CCAGGAACCCAAGGGGAGGCUAGGAUCCCCUUGGGGAAAUCCAGGUAGCAUCAGGUAUUGACAGGGAUCUGAAUCCCAAAGCAGAGAGAGAGGUCCAACCCCGUGUGGCC | 0.772
ACUUACAAAUAAUGGGCUCUGAUUGGGCAAUACUCAUUUGAGUUCCUUCCAUUUGACCUAAUUUAACUGGUGAAAUUUAAAGUGAAUUCAUGGGCUCAUCUUUAAAGCUU | 0.311
CGCUGCCUGACCACAGCAACCCCCUCCCGUGCGGCAGACGUCACUCCUCGCAUCGUGAGCUGAGGCUGCAGCAUUGGAACAAAACAGCAUUACAUCACUUUUCCUUUAAU | 10.6
GAGCCUCUUUAGUCUUCCCUGAAGCUGGCUUUCUAUGGUCAAGCUAUAAUUCUUUGGUGAAUAGGUAUGCCUAGGAACAACUGGUGGUUAGUCUGUGUCCUGUGUGGAAC | 0.43
AACACCAGCAGUUGUCAUUCAGUGCAGGUUUUUGUACUUCUAUAUGGUGAUUUUUUUACUUAAAAGCAGAAACAGAAGUUGACCUUCCUGACAUGUGUUUAAUAUUCCUC | 0.308
CCCAAAGACACGGGUAUUCCAGACCCGGUCUGCCUCCCUACCAGCCUUCUUAGGCUCUGUCGUGUGACUUUUCAGAUUAUAAAUGCCACAGCACGUGCUGUUUGAGAAGA | 0.64
UGGCUUGAAUUAGACCACAAAGCUGGCUGUAUAUGGGAGAGUCCUUUGUUGCUUCCUUCCCUGGAGAGCAACACUACCUCCUGGGCUUUACCAAGCACCACCCUAACCUC | 0.215
AUGUACAGAUACUAGCAUUGCACAUAUAGUCUGCUUUCUGUUCCUCCAGAAUUUGAGUCCUGUUAAUGUAGUAGAAAAAAAAAAAAGAAAUUUUCUUUUUCUUUUGUGCU | 0.898
UUCACAUGAAAAACACAGCCAGCCCAAGAUGACUUAUCUGGGUUUAGGAUUCAAUAGUAUUCACUAACUGCUUAUUACAUGAGCAAUUUCAUCAAAUCUCCAAACUCUUA | 0.323

Block 2 — technique: RNA Bind-n-Seq; form: RNA; sample: in vitro; concentration: 100 nM; relative to: input RNA pool; direction: higher = stronger binding
Target: RING finger protein unkempt homolog, zinc fingers 1-6, SBP tag (UNK, Homo sapiens, UniProt Q9C0B0, residues 30-357)
Sequence of UniProt Q9C0B0 (30-357, looked up): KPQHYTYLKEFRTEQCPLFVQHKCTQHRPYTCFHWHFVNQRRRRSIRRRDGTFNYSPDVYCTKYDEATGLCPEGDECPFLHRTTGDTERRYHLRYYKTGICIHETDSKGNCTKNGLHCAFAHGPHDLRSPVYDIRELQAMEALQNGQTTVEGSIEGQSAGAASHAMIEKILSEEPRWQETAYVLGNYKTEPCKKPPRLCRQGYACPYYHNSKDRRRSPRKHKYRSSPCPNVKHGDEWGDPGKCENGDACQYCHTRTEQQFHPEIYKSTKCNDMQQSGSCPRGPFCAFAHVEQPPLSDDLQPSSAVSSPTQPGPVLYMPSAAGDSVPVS
Setting: RNA with constant flanks, vertebrate orthologous sites, ends assumed
All sequences stand within: GGGAGUUCUACAGUCCGACGAUC … CAACAGAGGAUUGAGCAUCA
Sequence | bound/input enrichment [ratio]
UGCACUAGUGCUCUUCUAUGGAAGAGAUGAACUGGGGACAGCUAUCUCCUUUUUAUAGAUUACUUUGUUUCUAAAUUAUGACCAAAAUAUUUUGCUAUGUCUUUAUAUGUGAAAUCUUUU | 0.806
GUUGUGACCCAUUUAACAUACACAAAAAACUAGCCAAAAAAAAUUUGCAUGUAAUUGACUUAGAUGAUGCCACUUUUCUGAGUGCAAAAUUUGGAAGACAGCUUGUACCUGGUUGGAAGC | 1.48
GUGUGUGGGGUAGCCUUGGCCCCUGCCUUGGCCUUGCCUCUCUUCCCUGUCACCUGCCCCUAGUUAUUUUUUUUUUGACCACCACGUGAUUAUGGUCGGUGCUGCCUCCCCCCCGACCUG | 11
AGCAACCCAAGGAUUCAGGACUGGUUUUACAAAUAUACCAAGUAGAUAUGGAACUAACAAUAGAAUUGGACAACCAAGACCAUGAUGUACUGUAAUUUAAUUUAUUUUUAUGAGGAAUAU | 0.765
GUUGUGACCCAUUUAACAUACACAAAAAAUUAGCCAAAAAAAAUUUACAUGUAAUUGACUUAGAUGAUGCCACUUUUCUGAGUGCAAAAUUUGGAAGACAGCUUGUACCUGGUUGGAAAC | 2.93
ACGCUUCGACGUUAAGAUCACUGUGAACUCAUGACCUCGGCCGCGACGAGCACUUAACACUGAAAGCAACCUAAACCUAGUUAGUAACGAAGAAGUUCUGAUAAACACCACUAGUCUUUG | 0.358
UGGGGACAUACUCCAGGGAGCUGCCGGGCGCUUAGCGUUGUUUGAUUUAUGACCUUGACAUGGUAGGUAGGCUUGUUUUUUUUUUUAAUUUAAAAAUAUUGACUUAUUCACAAAAAUUUA | 1.32
UUACAGUCAUUGAUGGACUCUAUUUUUUUAUUAUUACUUGGACCUUGGUCGUUUUUAUACUAGCAAGAUGUCUUGUUUUAAUUUGUGUUUUUUUUGGGGGAGGGAGUGAACUUGCUGAUU | 2.67
AUAAUCACUCUAACUGUAUUCUGAAUAAAGUGUAACAUUGUGUAGCCUUUUUGUAUAAACUAGACAAAUAGAAAUGGUCCAAUUAGUUUCCUUUUUAAUAUGCUUAAAAUAAGCAGGUGG | 2.2
AAUCAUUUUUUAAUUUUAUGUAUACAUGGUCUAGUCAUGUGUUUUCUUACAGUUUGUCUAUUUGUCUGUACAUCUGUCUGUCAUGUUUCCUUCUCAGGCGAAGGGCUAGAGUUUUACAAA | 1.24
CUUAAUUAGAAGGUAGUAUGUGUUUCAUAAAGAAAAGUCUUUAUAAUUUUGUUUGUCAUAUCGUAUUUUGGAAUUUGUAUAAUGAGGACGUUUAGAAGCCAUACCAAUGGCUUUUUUUAA | 0.393

Block 3 — target: XBP1, bZIP domain (human); technique: DHFR protein complementation; sample: yeast; relative to: wild-type JUN-FOS pair; direction: higher = stronger binding
Setting: single substitutions, most at no-binding floor
Starting sequence: JUN, bZIP domain (human); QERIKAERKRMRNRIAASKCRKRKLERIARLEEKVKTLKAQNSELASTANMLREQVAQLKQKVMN; partner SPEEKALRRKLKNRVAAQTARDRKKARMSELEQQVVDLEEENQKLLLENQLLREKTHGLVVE
Change | binding fitness [natural log]
N42R | -1.27
Q55K | -0.503
E54H | -1.32
Q55H | -0.825
Q55C | -1.11
Q55I | -0.777
E44Q | -0.761
S47R | -0.317
Q55F | -0.828
A57E | -0.437
K36L | -0.917
Q41I | -0.592
R30C | -0.635
K36H | -1.17
T48L | -1.15
T37G | -1.1
K36R | -0.436
K39L | -1.19
I28C | -1.42
A46D | -1.44
E32T | -1.14

Block 4 — target: CCNB2, cyclin fold, Cln2 fusion (human); technique: yeast growth competition, sequencing; sample: yeast; setting: weak parent motif; relative to: not given; direction: higher = stronger binding
Starting sequence: GMNC docking peptide (human); KNAKRNLSSEFAN
Change | normalised enrichment score
KYAKRNLSSEFAN [N2Y] | 0.892
KNAKRWLSSEFAN [N6W] | 0.293
KNAKRNFSSEFAN [L7F] | 0.108
KNPKRNLSSEFAN [A3P] | -0.0283
KNAKVNLSSEFAN [R5V] | -0.28
KNAKRNLPSEFAN [S8P] | 0.326
KNAKRSLSSEFAN [N6S] | 0.366
KNATRNLSSEFAN [K4T] | -0.0645
KNAKRNLASEFAN [S8A] | 0.389
KNAKRNLSSEHAN [F11H] | 0.612
KNASRNLSSEFAN [K4S] | 0.392
KNCKRNLSSEFAN [A3C] | 1.35
KNAKRNLSSKFAN [E10K] | 0.486
KNAIRNLSSEFAN [K4I] | 0.49
KNAKRNLSSENAN [F11N] | 0.00798
KMAKRNLSSEFAN [N2M] | 0.267
KSAKRNLSSEFAN [N2S] | 0.584
KNAKRNLSSIFAN [E10I] | 0.0372
KNSKRNLSSEFAN [A3S] | 0.484
KNAKRNVSSEFAN [L7V] | 0.119
KNAKRNLSSEFRN [A12R] | 0.649
KNAERNLSSEFAN [K4E] | -0.311
KNAKRNLSSEYAN [F11Y] | 0.297
KNAKRNLSSTFAN [E10T] | 0.0311
KNAKRNLESEFAN [S8E] | 0.437

Block 5 — technique: protein binding microarray; form: double-stranded DNA, one strand shown; sample: in vitro; concentration: not given; relative to: not given; direction: higher = stronger binding
Target: Histone acetyltransferase KAT6A, both winged helices, GST fusion (KAT6A, Homo sapiens, UniProt Q92794, residues 1-181)
Setting: 8-mer, flanks averaged, mean of 2 arrays, mostly near background
Residues (chain): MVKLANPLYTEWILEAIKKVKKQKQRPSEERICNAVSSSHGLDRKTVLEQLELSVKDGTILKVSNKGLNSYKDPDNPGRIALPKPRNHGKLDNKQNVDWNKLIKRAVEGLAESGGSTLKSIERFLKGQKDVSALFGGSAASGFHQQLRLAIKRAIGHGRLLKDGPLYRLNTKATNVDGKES
Sequence | E-score
CAAGTGAC | -0.0584
ACACTCCC | -0.0323
AGACGGGA | 0.199
CCAACACA | -0.168
GTCATCCA | -0.154
CACGCAAG | -0.00458
AGACGAGA | -0.119
CAGGATAA | -0.21
ACGCGAAA | 0.155
TCTCCCCA | -0.27
AGAGGCCC | -0.131
ATGCCATA | -0.162
GGACAGAA | 0.0169
ATACTGGC | -0.229
CTCACGGA | 0.221
GCAAGACA | 0.053
CTTCGCTA | -0.137
ATTGATTC | 0.106
ACCTGTAG | -0.167
CGGCCCCG | 0.268
AATCTGCG | 0.138
ATCGAATC | 0.108

Mixed results
Molecule | target | assay | test system | setting | scale | endpoint | result
PhoQ, residues 284 288 289 292 302 303 TLASMF | PhoP, residues 12 14 15 18 19 LWHSL (Escherichia coli, UniProt P23836) | Sort-seq, item: YFP reporter | E. coli | PhoQ-PhoP variant library, with: 10 µM Mg2+ | relative to: high Mg2+ state, higher = stronger signaling | fold induction | 9.45 and 4.19
